Assay results of several laboratories.
± gives the spread as reported.
STING1 H232R: Stimulator of interferon genes protein (STING1, Homo sapiens, UniProt Q86WV6, H232R)
UniProt Q86WV6, sequence (whole entry, unmodified, looked up): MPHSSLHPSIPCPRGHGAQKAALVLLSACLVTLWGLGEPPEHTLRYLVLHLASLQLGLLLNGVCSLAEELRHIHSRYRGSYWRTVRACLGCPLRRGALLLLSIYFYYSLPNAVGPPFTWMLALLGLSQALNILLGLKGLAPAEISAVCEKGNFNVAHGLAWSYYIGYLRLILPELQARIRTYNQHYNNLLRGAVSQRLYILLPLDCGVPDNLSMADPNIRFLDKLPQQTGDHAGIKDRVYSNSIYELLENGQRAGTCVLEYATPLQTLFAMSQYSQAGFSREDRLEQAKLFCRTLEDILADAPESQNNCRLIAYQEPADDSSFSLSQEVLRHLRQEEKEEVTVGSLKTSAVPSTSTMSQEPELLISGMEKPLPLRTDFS
Cnr2: Cannabinoid receptor 2 (Cnr2, Mus musculus, UniProt P47936)
UniProt P47936, sequence (whole entry, looked up): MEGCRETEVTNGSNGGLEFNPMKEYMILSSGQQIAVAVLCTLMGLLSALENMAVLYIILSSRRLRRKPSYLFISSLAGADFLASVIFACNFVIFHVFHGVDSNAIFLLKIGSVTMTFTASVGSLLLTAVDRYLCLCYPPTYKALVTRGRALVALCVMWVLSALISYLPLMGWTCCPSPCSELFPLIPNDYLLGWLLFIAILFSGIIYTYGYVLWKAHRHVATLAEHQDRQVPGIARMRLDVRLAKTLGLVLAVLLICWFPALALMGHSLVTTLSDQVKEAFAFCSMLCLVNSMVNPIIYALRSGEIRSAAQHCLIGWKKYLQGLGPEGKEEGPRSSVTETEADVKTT
UniProt P09914, sequence (whole entry, looked up): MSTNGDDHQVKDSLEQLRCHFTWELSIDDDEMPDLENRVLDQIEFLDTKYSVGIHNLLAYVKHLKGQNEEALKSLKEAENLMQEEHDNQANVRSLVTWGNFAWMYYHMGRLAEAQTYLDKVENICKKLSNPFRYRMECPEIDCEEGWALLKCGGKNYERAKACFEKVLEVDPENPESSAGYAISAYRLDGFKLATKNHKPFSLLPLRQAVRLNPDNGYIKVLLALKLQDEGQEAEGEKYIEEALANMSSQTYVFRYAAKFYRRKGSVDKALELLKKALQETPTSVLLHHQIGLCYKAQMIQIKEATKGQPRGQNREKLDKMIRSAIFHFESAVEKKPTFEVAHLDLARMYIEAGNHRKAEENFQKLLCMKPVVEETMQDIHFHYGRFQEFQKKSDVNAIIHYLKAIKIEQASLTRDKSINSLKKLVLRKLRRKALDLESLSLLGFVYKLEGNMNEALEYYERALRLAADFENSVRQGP
UniProt Q9SZU7, sequence (whole entry, unmodified, looked up): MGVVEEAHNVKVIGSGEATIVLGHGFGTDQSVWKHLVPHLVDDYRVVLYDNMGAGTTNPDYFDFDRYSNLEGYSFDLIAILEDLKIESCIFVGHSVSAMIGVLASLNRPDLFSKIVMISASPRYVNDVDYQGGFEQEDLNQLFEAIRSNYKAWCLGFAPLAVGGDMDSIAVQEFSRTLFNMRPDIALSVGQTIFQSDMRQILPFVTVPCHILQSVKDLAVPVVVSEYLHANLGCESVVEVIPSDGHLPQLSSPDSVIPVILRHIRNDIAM
UniProt P47898, sequence (whole entry, looked up): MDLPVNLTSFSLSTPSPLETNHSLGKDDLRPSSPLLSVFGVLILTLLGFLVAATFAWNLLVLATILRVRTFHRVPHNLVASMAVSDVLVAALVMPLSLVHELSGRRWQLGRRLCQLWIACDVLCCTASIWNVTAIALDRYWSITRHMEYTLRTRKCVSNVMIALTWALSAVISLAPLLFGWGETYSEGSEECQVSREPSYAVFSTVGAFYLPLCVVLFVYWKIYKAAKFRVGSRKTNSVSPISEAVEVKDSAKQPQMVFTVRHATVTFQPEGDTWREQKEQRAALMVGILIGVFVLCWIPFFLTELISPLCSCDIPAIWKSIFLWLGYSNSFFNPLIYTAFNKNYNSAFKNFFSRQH
UniProt P80192, sequence (whole entry, looked up): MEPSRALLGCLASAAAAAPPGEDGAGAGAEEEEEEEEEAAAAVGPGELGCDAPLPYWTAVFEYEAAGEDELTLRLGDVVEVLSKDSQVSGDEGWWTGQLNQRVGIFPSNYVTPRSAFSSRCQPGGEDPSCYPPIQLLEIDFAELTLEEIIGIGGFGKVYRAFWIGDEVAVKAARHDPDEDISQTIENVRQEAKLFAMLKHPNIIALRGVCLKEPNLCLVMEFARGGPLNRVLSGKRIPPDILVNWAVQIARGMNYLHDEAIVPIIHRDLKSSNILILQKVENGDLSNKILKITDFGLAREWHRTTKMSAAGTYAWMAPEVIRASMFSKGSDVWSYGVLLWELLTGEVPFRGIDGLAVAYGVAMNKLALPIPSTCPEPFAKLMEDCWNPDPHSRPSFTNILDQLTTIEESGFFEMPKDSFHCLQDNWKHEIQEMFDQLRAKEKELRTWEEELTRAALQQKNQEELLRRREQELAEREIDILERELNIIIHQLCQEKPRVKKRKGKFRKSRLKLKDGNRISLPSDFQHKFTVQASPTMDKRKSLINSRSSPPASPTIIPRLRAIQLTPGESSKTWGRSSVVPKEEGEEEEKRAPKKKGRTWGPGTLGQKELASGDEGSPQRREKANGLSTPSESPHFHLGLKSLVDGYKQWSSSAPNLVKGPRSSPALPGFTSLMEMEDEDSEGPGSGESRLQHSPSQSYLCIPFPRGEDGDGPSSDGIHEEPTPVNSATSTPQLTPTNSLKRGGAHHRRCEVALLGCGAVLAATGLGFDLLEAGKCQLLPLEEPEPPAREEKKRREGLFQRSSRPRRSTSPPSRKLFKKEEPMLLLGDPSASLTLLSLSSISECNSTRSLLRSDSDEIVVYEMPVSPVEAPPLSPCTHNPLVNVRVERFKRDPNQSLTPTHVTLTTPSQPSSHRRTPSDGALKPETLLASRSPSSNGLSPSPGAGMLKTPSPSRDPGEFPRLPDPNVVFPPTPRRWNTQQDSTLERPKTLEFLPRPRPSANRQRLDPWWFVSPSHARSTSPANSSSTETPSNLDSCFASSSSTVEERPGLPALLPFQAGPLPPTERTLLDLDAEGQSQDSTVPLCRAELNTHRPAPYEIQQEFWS
UniProt Q92847, sequence (whole entry, looked up): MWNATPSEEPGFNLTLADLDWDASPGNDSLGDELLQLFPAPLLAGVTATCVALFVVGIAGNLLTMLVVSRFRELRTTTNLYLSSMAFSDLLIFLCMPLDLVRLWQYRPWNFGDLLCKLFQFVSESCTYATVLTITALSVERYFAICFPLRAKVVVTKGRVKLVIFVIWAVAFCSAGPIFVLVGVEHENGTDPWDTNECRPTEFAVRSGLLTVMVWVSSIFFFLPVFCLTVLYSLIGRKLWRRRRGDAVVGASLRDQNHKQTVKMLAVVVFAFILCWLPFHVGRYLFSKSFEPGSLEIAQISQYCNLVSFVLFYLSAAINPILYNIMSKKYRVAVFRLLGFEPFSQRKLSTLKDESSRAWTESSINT
UniProt Q15059, sequence (whole entry, looked up): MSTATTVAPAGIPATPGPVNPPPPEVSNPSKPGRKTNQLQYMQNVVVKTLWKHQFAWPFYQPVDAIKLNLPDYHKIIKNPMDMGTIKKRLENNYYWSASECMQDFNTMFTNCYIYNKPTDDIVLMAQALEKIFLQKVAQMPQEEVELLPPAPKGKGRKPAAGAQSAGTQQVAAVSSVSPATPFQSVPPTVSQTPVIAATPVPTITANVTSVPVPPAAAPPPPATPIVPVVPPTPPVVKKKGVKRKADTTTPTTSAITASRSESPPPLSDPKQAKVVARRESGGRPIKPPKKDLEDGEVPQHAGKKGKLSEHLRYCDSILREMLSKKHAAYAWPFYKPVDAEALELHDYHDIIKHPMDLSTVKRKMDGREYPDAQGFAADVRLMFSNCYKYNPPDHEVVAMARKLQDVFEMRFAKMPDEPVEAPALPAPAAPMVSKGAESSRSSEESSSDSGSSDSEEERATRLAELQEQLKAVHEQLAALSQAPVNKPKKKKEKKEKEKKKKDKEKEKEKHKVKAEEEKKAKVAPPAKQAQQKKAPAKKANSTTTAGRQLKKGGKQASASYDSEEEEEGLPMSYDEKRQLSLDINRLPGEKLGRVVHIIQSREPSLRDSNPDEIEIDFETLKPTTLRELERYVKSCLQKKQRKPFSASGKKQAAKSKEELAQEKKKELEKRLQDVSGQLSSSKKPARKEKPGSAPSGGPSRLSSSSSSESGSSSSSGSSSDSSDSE
UniProt P17858, sequence (whole entry, looked up): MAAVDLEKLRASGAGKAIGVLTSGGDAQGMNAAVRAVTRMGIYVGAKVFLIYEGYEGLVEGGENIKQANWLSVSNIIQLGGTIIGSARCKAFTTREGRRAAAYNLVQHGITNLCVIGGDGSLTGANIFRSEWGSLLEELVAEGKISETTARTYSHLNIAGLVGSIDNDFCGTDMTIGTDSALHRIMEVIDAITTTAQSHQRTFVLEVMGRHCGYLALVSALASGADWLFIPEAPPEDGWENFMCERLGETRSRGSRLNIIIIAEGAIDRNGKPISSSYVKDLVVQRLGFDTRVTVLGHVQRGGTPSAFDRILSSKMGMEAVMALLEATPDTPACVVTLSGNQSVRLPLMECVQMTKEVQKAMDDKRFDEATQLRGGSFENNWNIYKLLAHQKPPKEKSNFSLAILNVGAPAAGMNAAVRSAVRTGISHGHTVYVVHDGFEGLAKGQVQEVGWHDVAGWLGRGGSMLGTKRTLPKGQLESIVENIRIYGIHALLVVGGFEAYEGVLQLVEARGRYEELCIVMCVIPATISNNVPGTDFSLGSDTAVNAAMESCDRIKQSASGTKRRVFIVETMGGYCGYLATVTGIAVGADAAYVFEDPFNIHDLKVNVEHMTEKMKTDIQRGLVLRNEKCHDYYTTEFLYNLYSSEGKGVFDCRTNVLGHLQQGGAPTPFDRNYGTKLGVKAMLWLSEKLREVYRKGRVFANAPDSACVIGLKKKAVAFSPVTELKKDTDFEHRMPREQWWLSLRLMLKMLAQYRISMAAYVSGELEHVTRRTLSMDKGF

O=C(O)C(Cc1c[nH]cn1)N1C(=O)c2ccc3c4ccc5c6c(ccc(c7ccc(c2c37)C1=O)c64)C(=O)N(C(Cc1c[nH]cn1)C(=O)O)C5=O (stereo not shown) — DC50 (human telomeric G-quadruplex DNA; binding, thiazole orange displacement; pH 7): > 2500 nM
O=C(NCC[C@H](NC(=O)c1cnc(-c2ccccc2)o1)c1nc2ccccc2[nH]1)c1ccc([N+](=O)[O-])o1 — EC50 (STING1 H232R; reporter gene, inhibitor; THP1-Dual KI-hSTING-R232; 24 h, 1 h preincubation, together with: diABZI 500 nM): 13800 nM
COc1ccc(C(=O)c2c(C(=O)NCCCN(C)C)oc3ccc(Cl)cc3c2=O)cc1OC — EC50 (GHSR (Homo sapiens, UniProt Q92847); Gαs dissociation, agonist, TRUPATH BRET; HEK293T): 501 nM
O=C1c2ccc3c4ccc5c6c(ccc(c7ccc(c2c37)C(=O)N1CCN1CCCCC1)c64)C(=O)N(CCN1CCCCC1)C5=O — DC50 (human telomeric G-quadruplex DNA; binding, thiazole orange displacement; pH 8): 1850 ± 270 nM
N=C(NCC[C@H](NC(=O)c1noc(-c2cc(F)ccc2F)n1)c1nc2ccccc2[nH]1)c1ccc([N+](=O)[O-])o1 — EC50 (STING1 H232R; reporter gene, inhibitor; THP1-Dual KI-hSTING-R232; 24 h, 1 h preincubation, together with: diABZI 500 nM): 1700 nM
C[n+]1cn([C@@H]2O[C@H](COP(=O)(O)OP(=O)([O-])OP(=O)(O)OC[C@H]3O[C@@H](n4cnc5c(N)ncnc54)[C@H](O)[C@@H]3OP(=O)(O)OC[C@H]3O[C@@H](n4cnc5c(=O)[nH]c(N)nc54)[C@H](O)[C@@H]3O)[C@@H](O)[C@H]2O)c2nc(N)nc(O)c21 — Kd (Antiviral innate immune response effector IFIT1 (IFIT1, Homo sapiens, UniProt P09914); microscale thermophoresis; pH 7.5, together with: structured cap I RNA, 35 nt): 8 nM
Cn1ccc2c(N3CCN(CCCCOc4ccc5c(c4)NC(=O)CC5)CC3)cccc21 — Ki (HTR5A (Homo sapiens, UniProt P47898); ligand displacement, radioligand): > 10000 nM
Cc1cccc2c1N(C(=O)n1ccnn1)CC2 — Kd (KAI2 (Arabidopsis thaliana, UniProt Q9SZU7, I193A); ITC; I193A mutant, mean): 38900 nM
O=C(N[C@@H](CCNC(=O)c1ccc([N+](=O)[O-])o1)c1nc2ccccc2[nH]1)c1ccc(-c2ccccc2)cc1 — EC50 (STING1 H232R; reporter gene, inhibitor; THP1-Dual KI-hSTING-R232; 24 h, 1 h preincubation, together with: diABZI 500 nM): 6800 nM
O=P(O)(O)OP(=O)(O)OP(=O)(O)OCCCCO — Ki (DNA polymerase beta (POLB, Homo sapiens, UniProt P06746); DNA polymerase activity, inhibitor; together with: 1 mM Mg2+, poly(dA)/oligo(dT)): > 400000 nM
O=C(NCC[C@H](NC(=O)[C@H]1C[C@@H](c2ccccc2)C1)c1nc2ccccc2[nH]1)c1ccc([N+](=O)[O-])o1 — EC50 (STING1 H232R; reporter gene, inhibitor; THP1-Dual KI-hSTING-R232; 24 h, 1 h preincubation, together with: diABZI 500 nM): 5300 nM
Cc1nn(-c2cccc(N)c2)c(=O)c2cnc(Nc3ccc(N4CCNCC4)cc3)nc12 — IC50 (MAP3K9 (Homo sapiens, UniProt P80192); enzyme activity, inhibitor): 1370 nM
CCOC(=O)C(CC)(CCCSCCOCCOCCN=[N+]=[N-])NC(=O)c1ccc(C2CC2)c(Cc2ccc(F)cc2)n1 (stereo not shown) — Ki (Cnr2; ligand displacement, radioligand; cell membranes): 52 nM
O=C(N[C@@H](CCNC(=O)c1ccc([N+](=O)[O-])o1)c1nc2ccccc2[nH]1)c1ccc(-c2ccc(F)cc2)o1 — EC50 (STING1 H232R; reporter gene, inhibitor; THP1-Dual KI-hSTING-R232; 24 h, 1 h preincubation, together with: diABZI 500 nM): 9400 nM
O=S(=O)(c1ccc2c(c1)OCO2)n1cc(CCCCN2CCC(=C(c3ccc(F)c(F)c3)c3ccc(F)c(F)c3)CC2)nn1 — EC50 (PFKL (Homo sapiens, UniProt P17858); enzyme activity, activator, ADP-Glo; 2): 410 nM
CCOC(=O)[C@](CC)(CCCSCCOCCOCCN)NC(=O)c1ccc(C2CC2)c(Cc2ccc(F)cc2)n1 — Ki (Cnr2; ligand displacement, radioligand; cell membranes): 2.6 nM
O=C(O)C(Cc1c[nH]cn1)N1C(=O)c2ccc3c4ccc5c6c(ccc(c7ccc(c2c37)C1=O)c64)C(=O)N(CCN1CCCCC1)C5=O (stereo not shown) — DC50 (human telomeric G-quadruplex DNA; binding, thiazole orange displacement; pH 7): 280 ± 110 nM
O=C(N[C@@H](CCNC(=O)c1ccc([N+](=O)[O-])o1)c1nc2ccccc2[nH]1)c1ccc(C#CC2CC2)cc1 — EC50 (STING1 H232R; reporter gene, inhibitor; THP1-Dual KI-hSTING-R232; 24 h, 1 h preincubation, together with: diABZI 500 nM): 5100 nM
CC(=O)N1c2ccc(-c3ccc(CNC(=O)c4cn5cc(-c6cnc(N)nc6)nc(N6CCOCC6)c5n4)cc3)cc2CC[C@@H]1C — Kd (Bromodomain-containing protein 3, BD1 (BRD3, Homo sapiens, UniProt Q15059); binding, competition with immobilised ligand): 38 nM

Excerpt of the above:
CCOC(=O)[C@](CC)(CCCSCCOCCOCCN)NC(=O)c1ccc(C2CC2)c(Cc2ccc(F)cc2)n1 — Ki (Cnr2; ligand displacement, radioligand; cell membranes): 2.6 nM
